Measurements gathered from unrelated publications.
Lines come from different studies, so protocols differ. Several values in a cell are separate wells, animals, samples, runs or records.
DRD2: D(2) dopamine receptor (DRD2, Homo sapiens, UniProt P14416)

SMILES	target	assay	system	setting	how to read	quantity	result
CCN(CC)C(=O)[C@@H]1C=C2c3cccc4c3c(cn4C(=O)c3ccco3)C[C@H]2N(C)C1	DRD2	radioligand binding	–	10 µM	–	inhibition	< 50%
Cc1sc2c(c1C)C(c1ccc(Cl)cc1)=NC(CC(=O)OC(C)(C)C)c1nnc(C)n1-2 (stereo not drawn)	DRD2	specific binding, antagonist radioligand binding	–	1 µM	–	inhibition	-2%
N[C@H](C(=O)N1CCCC1)C1CCN(c2nccc3c(-c4ncc(Cl)cc4Cl)cccc23)CC1	D(2) dopamine receptor, short isoform (DRD2, Homo sapiens, UniProt P14416)	functional response, antagonist	–	10 µM	–	inhibition	4%
Cc1cc(Nc2nc(C[C@@]3(C(=O)O)CCN(Cc4cccc(Cl)c4F)[C@H](C)C3)cc(C)c2F)[nH]n1	DRD2	inhibitor	–	10 µM	–	inhibition	4.9%
CS(C)(=O)=Nc1ccc(-c2ccc(-c3nc4cc(O[C@@H]5CO[C@H]6[C@@H]5OC[C@H]6O)[nH]c4cc3F)cc2)cc1	DRD2	calcium signal, antagonist	–	10 µM	–	inhibition	23%
CN[C@@H]1[C@H](O)[C@H](NC)[C@H]2O[C@]3(O)[C@H](O[C@@H]2[C@H]1O)O[C@H](C)C[C@H]3NC(=O)Cc1ccc(Cl)cn1	DRD2	–	–	10 µM	–	inhibition	-1%
COc1ccc(F)cc1S(=O)(=O)Nc1cnc2c(c1)C(=O)NCCO2	DRD2	ligand displacement, radioligand	–	10 µM	–	inhibition	0%
O=C1c2ccccc2CCCN1CCCCN1CCN(c2cccc(Cl)c2Cl)CC1	DRD2	ligand displacement, radioligand	–	10 µM	–	inhibition	99%
C/C(=N\OCCCN1CCCCC1)c1ccc(C(F)(F)F)cc1	DRD2	antagonist, cAMP	–	10 µM	–	inhibition	55.5%
CCN(CC)CCOc1ccc(-c2nnn(Cc3ccc(OC)cc3)c2N)cc1	DRD2	radioligand binding	HEK293	10 µM, safety profiling	–	inhibition	5.83%
COc1ccccc1N1CCN(CCCCN2CCCc3ccccc3C2=O)CC1	DRD2	ligand displacement, radioligand	–	10 µM	–	inhibition	96.9%
Cc1ccc2c(n1)c(-c1cccc(S(C)(=O)=O)c1)c(C)n2C/C(F)=C/CN	DRD2	inhibitor, radioligand binding	–	10 µM	–	inhibition	6%
CCOC(=O)[C@](CC)(CCCSCCOCCOCCNC(=O)c1ccc(-c2c3ccc(=N)c(S(=O)(=O)O)c-3oc3c(S(=O)(=O)O)c(N)ccc23)c(C(=O)O)c1)NC(=O)c1ccc(C2CC2)c(Cc2ccc(F)cc2)n1	DRD2	specific binding, agonist radioligand binding	–	10 µM	–	inhibition	-11%
O=C(O)c1ccc(-c2nc(-c3ccccc3Cl)c3sccn23)cc1	DRD2	radioligand binding, safety screen panel	–	10 µM	baseline: control	specific binding	94.4% and 101%
Cc1cc(-c2ccc3ccccc3c2)nnc1NCCN1CCN(C)CC1	DRD2	antagonist	–	10000 nM	baseline: control	activity	0%

Excerpt of the above:
SMILES	target	assay	system	setting	how to read	quantity	result
O=C1c2ccccc2CCCN1CCCCN1CCN(c2cccc(Cl)c2Cl)CC1	DRD2	ligand displacement, radioligand	–	10 µM	–	inhibition	99%
C/C(=N\OCCCN1CCCCC1)c1ccc(C(F)(F)F)cc1	DRD2	antagonist, cAMP	–	10 µM	–	inhibition	55.5%
